Measured values collected from several papers.
Protocols differ between the studies behind these lines. Numbers after ± are the reported error. In brackets after ≈: the same amount, converted by molar mass.
UniProt Q96SW2, sequence (whole entry, looked up): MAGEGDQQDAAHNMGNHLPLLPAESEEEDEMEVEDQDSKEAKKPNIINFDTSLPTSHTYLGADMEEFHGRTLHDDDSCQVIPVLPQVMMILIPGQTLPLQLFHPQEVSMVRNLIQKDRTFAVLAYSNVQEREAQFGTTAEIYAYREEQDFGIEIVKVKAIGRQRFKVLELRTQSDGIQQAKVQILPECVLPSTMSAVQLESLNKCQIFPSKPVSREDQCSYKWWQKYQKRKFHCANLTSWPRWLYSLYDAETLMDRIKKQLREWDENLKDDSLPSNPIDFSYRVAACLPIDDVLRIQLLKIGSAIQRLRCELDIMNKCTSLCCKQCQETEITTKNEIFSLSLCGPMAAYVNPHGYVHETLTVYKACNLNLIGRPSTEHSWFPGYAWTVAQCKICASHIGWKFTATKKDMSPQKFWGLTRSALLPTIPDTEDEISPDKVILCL
UniProt P48729, sequence (whole entry, looked up): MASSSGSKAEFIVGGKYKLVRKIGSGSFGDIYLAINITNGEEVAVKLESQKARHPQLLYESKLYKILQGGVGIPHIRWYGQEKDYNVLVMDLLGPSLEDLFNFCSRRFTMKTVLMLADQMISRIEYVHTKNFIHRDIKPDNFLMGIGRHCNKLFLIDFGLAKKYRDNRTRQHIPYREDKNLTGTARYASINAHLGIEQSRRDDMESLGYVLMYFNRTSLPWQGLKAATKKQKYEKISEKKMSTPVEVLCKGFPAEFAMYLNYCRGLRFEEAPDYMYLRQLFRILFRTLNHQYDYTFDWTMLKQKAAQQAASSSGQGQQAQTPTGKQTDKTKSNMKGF

SMILES	target or system	assay	test system	conditions	scale	quantity	result
N#Cc1cnn2ccc(-c3ccc4c(c3)CN([C@H]3CCC(=O)NC3=O)C4=O)nc12	Cereblon/Casein kinase I alpha (CSNK1A1/CRBN, Homo sapiens, UniProt P48729+Q96SW2)	degrader	MOLT-4 CSNK1A1-HiBiT	24 h		DC50	406 nM
[2H]C([2H])([2H])Oc1cc2c(cc1OC([2H])([2H])[2H])[C@H]1CC(=O)[C@H](CC(C)C)CN1CC2			healthy men, urine and feces	oral, 25 mg, time not given		radioactive dose recovered	80%
CC(C)CCCC(C)CCCC(C)CCO[C@@H]1O[C@H](CO)[C@@H](O[C@H]2O[C@H](CO)[C@@H](O)[C@H](O)[C@H]2O)[C@H](O)[C@H]1O (stereo partly shown)		dynamic surface tension		0.0145 mmol/L		surface tension at induction time	63.2 mN/m
CC(=O)N[C@H](C(=O)N[C@H](C(=O)N[C@@H](CCCNC(=N)N)C(=O)N1Cc2ccccc2C[C@H]1C(=O)N[C@@H](Cc1ccccc1)C(N)=O)C1CCCCC1)C(C)C	human PBMC	Bio-Plex multiplex, refers to: IL-1ra		500 µg/mL, 24 h		cytokine level	151 ± 69.4 pg/mL
COc1ccc2cc(-c3ccc(-c4ccc(C)cn4)nc3)oc2c1		TCSPC	water, HEPES 100 mM	pH 7.4, zinc-free ligand		radiative decay rate constant	0.1 ns⁻¹
Cc1cc(-c2ccc(NC(=O)[C@H](CCCCNC(=O)CCOCCOCCC(=O)N[C@H](Cc3ccccc3)C(=O)N[C@H]3CSSC[C@@H](C(=O)N[C@H](C(=O)O)[C@@H](C)O)NC(=O)[C@H]([C@@H](C)O)NC(=O)[C@H](CCCCN)NC(=O)[C@@H](Cc4c[nH]c5ccccc45)NC(=O)[C@H](Cc4ccc(O)cc4)NC3=O)NC(=O)CN3CCN(CC(=O)O)CCN(CC(=O)O)CCN(CC(=O)O)CC3)c(C)c2)ccc1N=Nc1ccc2c(S(=O)(=O)O)cc(S(=O)(=O)O)c(N)c2c1O [lutetium-177 labelled]			human metastatic neuroendocrine tumour	dose not given		grade 1 abdominal pain incidence	17%
CC(C)CCN(c1nc(C#N)nc(NC2COC2)n1)C(C)c1ccc(F)cc1 (stereo not shown)			CD-1 mouse female	intraperitoneal, 10 mg/kg	baseline: brain over plasma	brain/plasma AUC ratio	0.52
CN(C)S(=O)(=O)c1cc(C(=O)O)ccc1NCCCCCCCC(F)(F)F			WT and Ts65Dn mice	ip, 0.2 mg/kg daily, 4 weeks		organ weights	no effect
C=C(c1cc(F)c(C(=O)O)c(F)c1)c1cc2c(cc1C)C(C)(C)CCC2(C)C			Sprague-Dawley rat, male, plasma	oral, 100 mg/kg, 3 h, sesame oil vehicle		LDL level	13 ± 3.6 mg/dL
CN1CCN(c2cc(-c3ccccc3CO)c(N(C)C(=O)C(C)(C)c3cc(C(F)(F)F)cc(C(F)(F)F)c3)cn2)CC1			human, plasma	dose not given		duration of quantifiable plasma levels	10 days
C[Si]1(C[C@@H](CN)CC(=O)O)CCCC1		neuromuscular coordination	Wistar rat male	oral, 300 mg/kg, 2 h		performance time	180 s
O=C([O-])CN1CCN(CC(=O)[O-])CCN(CC(=O)NCCc2ccc3c(c2)C2C=CCC2C(c2cc4c(cc2Br)OCO4)N3)CCN(CC(=O)[O-])CC1.[111In+3] (stereo not shown)	Hec50 tumour model		host not given, bone	30 min, tumour-bearing		tracer uptake	1.32 %ID/g
Cc1ccc(OCC(=O)N(Cc2cccs2)c2ccn[nH]2)cc1			beagle dog, male, plasma	oral gavage, 10 mg/kg		oral bioavailability	1.26%
CC(C)(O)c1ncc([S@](N)(=O)=NC(=O)Nc2c3c(cc4c2CCC4)CCC3)s1			human, plasma	oral, 600 mg, single dose, fasted, healthy volunteers		Tmax	2.5 h
COc1cc2c(cc1OC)CN(CCCCn1ccc3cc(OCC[18F])ccc31)C2			ICR mice, male, stomach	intravenous, 2 min		uptake	1.62 ± 0.54 %ID/organ
CCCC[C@H](NC(=O)CCCCCCCNC(=O)CN1CCN(CC(=O)O)CCN(CC(=O)O)CC1)C(=O)N[C@H]1CC(=O)NCCCC[C@@H](C(N)=O)NC(=O)[C@H](Cc2c[nH]c3ccccc23)NC(=O)[C@H](CCCNC(=N)N)NC(=O)[C@@H](Cc2ccccc2)NC(=O)[C@H](Cc2c[nH]cn2)NC1=O [copper-64 labelled]			C57 mice, spleen	intravenous, 0.37 MBq, 0.5 h		tissue uptake	0.99 ± 0.25 %ID/g
O=C(O[C@H](CO)C(F)(F)F)N1C[C@@H]2[C@H](C1)[C@H]2c1ccn(-c2ccc([18F])nc2)n1			Sprague-Dawley rat, plasma	dose not given, 30 min		parent fraction of radioactivity	46%
C=C(C)C(=O)Nc1ccc(-c2c(-c3ccc(Oc4nccc(C)n4)cc3)c3c(N)ncnc3n2C)cc1			beagle dog, plasma	5 µM, 18 h		unbound fraction	0.043
COC(=O)/C=C/C(=O)c1ccc(OC)cc1			Sprague-Dawley rat, plasma	oral, 200 mg/kg		half-life	~7.2 h
COc1cc2ncnc(Oc3ccc4c(C(N)=O)c(C)oc4c3)c2cc1OC		refers to: Cmax	human, moderate renal impairment	oral	baseline: normal renal function	decrease in exposure	~32%
[64Cu+2].c1cnc(CNCc2ccc(CN3CCCN4CCNCCCN(CC4)CC3)cc2)nc1	C-X-C chemokine receptor type 4 (CXCR4, Homo sapiens, UniProt P61073)		NOD/SCID mice, U87 xenografts, U87-stb-CXCR4 tumour	240 min post-injection		tissue uptake	23.1 ± 1.34 %ID/g
CCCC(CCC)NC(=O)c1ccc(O)c(O)c1			male Sprague-Dawley rats, plasma	oral, 200 mg/kg of parent drug	baseline: 200 over 20 mg/kg dose	AUC(0-last) ratio	73.7

SMILES	target or system	assay	test system	conditions	scale	quantity	result
C=CC(=O)Nc1cc(Nc2nccc(-c3cn(C)c4ccccc34)n2)c(OCC(F)(F)F)nc1N(C)CCN(C)C	Cytochrome P450 2C9 (CYP2C9, Homo sapiens, UniProt P11712)	enzyme activity, inhibitor	human, liver microsomes	1 µM		activity vs control	108%
Cc1ccc(/N=N/c2c(O)ccc3ccccc23)c(C)c1			rat whole blood	16.0 µg/L, freeze-thaw cycle 2		freeze-thaw stability deviation	0.8%
CC(C)(F)CC(NC(c1ccc(-c2ccc(S(C)(=O)=O)cc2)cc1)C(F)(F)F)C(=O)NCC#CBr (stereo not shown)		LC-MS UV trace	aqueous buffer	23 h, pH 7.5, 37 °C, with: GSH 5 mM		GSH adduct formation	47%
CC(Oc1cc(-c2ccccc2)nc2cnccc12)C(=O)N(C)c1ccccc1 (stereo not shown)	human leukocytes	binding			baseline: LAB over HAB genotype	Ki ratio	33 ± 20
O=C(C1CC1)N1CC=C(c2cc3c(Nc4cc5ncsc5cc4F)ncnc3s2)CC1		metabolic stability	human, liver microsomes			half-life	> 2 h
COC(=O)C1OC(Oc2c(-c3ccccc3)oc3cc(O)c(O)c(O)c3c2=O)C(O)C(O)C1O (stereo not shown)			BALB/c mouse, thymus	2 mg/kg		organ weight	0.26 ± 0.08 g
COCC1CN(C2CCN(c3cc(OC)c(Nc4ncc(Br)c(Nc5ccc6c(c5P(C)(C)=O)OCCO6)n4)cc3C)CC2)C1			human	oral, dose not given	baseline: patients	grade ≥3 treatment-related adverse events	22.2%
[Ru+2].c1ccc(-c2cccc(-c3ccccn3)n2)nc1.c1ccc2nc(-c3ccc4ccccc4n3)ccc2c1.c1ccncc1			water	470 nm light		photosubstitution quantum yield	0.014
CC(C)[C@H](NC(=O)CNC(=O)[C@H](CCC(N)=O)NC(=O)[C@H](C)N)C(=O)O		LC-MS/MS	human, male, plasma	intravenous, 10 mg/kg three times daily, day 1, first dose, 10 min infusion, geometric mean		Cmax	2300 ng/mL
Cn1c(=O)oc2ccc(-c3ccc(CC(C#N)NC(=O)C4CNCCCO4)c(F)c3)cc21 (stereo not shown)			human	oral, 10 mg once daily, TEAE, multiple ascending dose		triglycerides increased incidence	66.7%
O=C(O)CCC(NP(=O)(O)OCCC[C@@H](NC(=O)CC[C@H](NC(=O)CCCCCNC(=O)c1ccc([18F])cc1)C(=O)O)C(=O)O)C(=O)O (stereo partly shown)	CWR22Rv1 tumour model		host not given, tumour	1 h, tumour-bearing		tracer uptake	2.35 %ID/g
O=[N+]([O-])[O-].[NH3+][Pt-2]1([NH3+])[O]C(c2ccccc2)=CC(c2ccccc2)=[O+]1 (stereo not shown)		1H NMR	PBS	up to 25 d, pH 7.4, 37 °C		chemical stability	no effect
CC(C)(C)NCC(SS(=O)(=O)O)c1ccccc1 (stereo not shown)			mouse liver microsomes	without NADPH		intrinsic clearance	2.5 µL/min/mg
CO.COc1ccc2c(c1)c(CC(=O)[O-])c(C)n2C(=O)c1ccc(Cl)cc1.COc1ccc2c(c1)c(CC(=O)[O-])c(C)n2C(=O)c1ccc(Cl)cc1.O.[Co+2].c1ccc(Nc2ccccn2)nc1	calf thymus DNA	cyclic voltammetry	DMSO/buffer	Co(II)/Co(I) couple, with DNA		anodic peak potential	-489 mV
N=C(N)NCCC[C@@H]1NC(=O)[C@H](CCCCNC(=O)CNC(=O)CNC(=O)CNC(=O)CC[C@H](NC(=O)CNC(=O)CNC(=O)CNC(=O)CN2CCN(CC(=O)O)CCN(CC(=O)O)CCN(CC(=O)O)CC2)C(=O)NCC(=O)NCC(=O)NCC(=O)NCCCC[C@@H]2NC(=O)[C@@H](Cc3ccccc3)NC(=O)[C@H](CC(=O)O)NC(=O)CNC(=O)[C@H](CCCNC(=N)N)NC2=O)NC(=O)[C@@H](Cc2ccccc2)NC(=O)[C@H](CC(=O)O)NC(=O)CNC1=O [indium-111 labelled]			female athymic nu/nu mice, U87MG tumour	intravenous, 111 kBq, 72 h		tissue uptake	1.99 ± 0.39 %ID/g
[64Cu+2].c1ccc(CNCc2ccc(CN3CCCN4CCNCCCN(CC4)CC3)cc2)nc1	CXCR4		NOD/SCID mouse, U87 and U87-stb-CXCR4 xenografts, muscle	iv, 480 min, ex vivo		tissue uptake	0.27 ± 0.05 %ID/g
C=C(c1ccc(C(=O)O)c(F)c1)c1cc2c(cc1C)C(C)(C)C=CC2(C)C			Sprague-Dawley rat, male, plasma	oral, 100 mg/kg, 24 h, sesame oil vehicle		LDL level	3 mg/dL
O=c1[nH]c(=O)n(C2OC(CO)C(O)C2O)cc1-n1nnc2c1CCC1C(CO)C1CC2 (mixture of isomers)			methanol	red edge of spectrum		second excitation maximum	388 nm
CCCC[C@@H]1NC(=O)[C@@H](NC(=O)[C@H](CCC(=O)O)NC(=O)CNC(=O)CN2CCN(CC(=O)O)CCN(CC(=O)O)CCN(CC(=O)O)CC2)CCCCNC(=O)C[C@@H](C(N)=O)NC(=O)[C@H](C(C)C)NC(=O)[C@@H]2CCCN2C(=O)[C@H](CCCNC(=N)N)NC(=O)CNC(=O)[C@H](Cc2c[nH]c3ccccc23)NC(=O)[C@H](CCCNC(=N)N)NC(=O)[C@@H](Cc2ccccc2)NC(=O)[C@H](Cc2c[nH]cn2)NC(=O)[C@H](CCC(=O)O)NC1=O [gallium-67 labelled]			C57 mice, B16/F1 flank melanoma, tumour	intravenous, 0.037 MBq, 2 h		tumour uptake	12.9 ± 1.63 %ID/g
CCC/C(=C\C1=C(OC)C(=O)c2ccccc2C1=O)C(=O)NOC			aqueous buffer	pH 6.8		thermodynamic solubility	407 µg/mL (≈ 1240 µM)
O=C(O)[C@@H]1C[C@@H](O)CN1C(=O)[C@@H]1CCCN1		potentiometric titration		37 °C, MAH-3 complex, with: Fe(III)		log beta	-6.74

Repeated from above:
SMILES	target or system	assay	test system	conditions	scale	quantity	result
O=C(O)CCC(NP(=O)(O)OCCC[C@@H](NC(=O)CC[C@H](NC(=O)CCCCCNC(=O)c1ccc([18F])cc1)C(=O)O)C(=O)O)C(=O)O (stereo partly shown)	CWR22Rv1 tumour model		host not given, tumour	1 h, tumour-bearing		tracer uptake	2.35 %ID/g
C=C(c1cc(F)c(C(=O)O)c(F)c1)c1cc2c(cc1C)C(C)(C)CCC2(C)C			Sprague-Dawley rat, male, plasma	oral, 100 mg/kg, 3 h, sesame oil vehicle		LDL level	13 ± 3.6 mg/dL
Cc1ccc(/N=N/c2c(O)ccc3ccccc23)c(C)c1			rat whole blood	16.0 µg/L, freeze-thaw cycle 2		freeze-thaw stability deviation	0.8%
